{"data": "Measurements of several laboratories", "Ugcg": "Ceramide glucosyltransferase (Ugcg, Mus musculus, UniProt O88693)", "note": "Values joined by “and” are separate records of one study, mostly repeats; a detail may differ. ± marks the error that the study gave.", "UniProt O88693, sequence (whole entry, looked up)": "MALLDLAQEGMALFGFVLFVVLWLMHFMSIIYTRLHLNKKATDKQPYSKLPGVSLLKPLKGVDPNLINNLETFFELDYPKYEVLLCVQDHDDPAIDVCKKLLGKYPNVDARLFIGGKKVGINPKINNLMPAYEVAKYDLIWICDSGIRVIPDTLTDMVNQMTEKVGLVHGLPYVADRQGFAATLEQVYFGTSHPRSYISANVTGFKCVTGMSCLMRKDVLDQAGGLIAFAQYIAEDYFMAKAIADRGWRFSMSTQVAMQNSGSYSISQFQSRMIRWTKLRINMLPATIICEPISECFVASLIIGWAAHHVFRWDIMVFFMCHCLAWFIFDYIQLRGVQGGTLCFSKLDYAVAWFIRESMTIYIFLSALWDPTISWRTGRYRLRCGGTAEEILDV"}
{"SMILES": "O=C(NCCOc1ccc(F)cc1)c1ccc([C@H]2[C@@H](F)[C@@H](F)C[C@@H](F)[C@H]2F)cc1", "assay": "hepatocyte stability", "test system": "cryopreserved human hepatocytes", "conditions": "1 µM", "quantity": "hepatic clearance", "value": "9.4 mL/min/kg"}
{"SMILES": "COc1cnc2cccc(N3CCc4c(cc(Cn5ccnc5)cc4-c4cn(C)nc4C(F)(F)F)C3=O)c2c1", "test system": "CD-1 mouse, male, plasma", "conditions": "intraperitoneal, 10 mg/kg", "quantity": "AUC extrapolated fraction", "value": "0%"}
{"SMILES": "C=CC(=O)Nc1cc(Nc2nccc(-c3cn(C)c4ccccc34)n2)c(OC)cc1N(C)CCNC", "assay": "storage stability", "test system": "human plasma", "conditions": "30 d, -80 °C, MQC level", "quantity": "recovery", "value": "99.5%"}
{"SMILES": "C=C1CC[C@H](OCCCNC(=O)CCOCCOCCOCCOCCOCCOCCOCCOCCOCCOCCOCCOCCOCCOCCOCCOCCOCCOCCOCCOCCOCCOCCOCCOCCOCCOCCOCCOCCOCCOCCOCCOCCOCCOCCOCCOCCNC(=O)CCN2C(=O)CC(SC[C@H](NC(=O)[C@H](Cc3ccccc3)NC(=O)[C@H](CC(N)=O)NC(=O)[C@H](Cc3c[nH]cn3)NC(=O)[C@@H](NC(=O)[C@H](CC(=O)O)NC(=O)[C@H](CCC(N)=O)NC(=O)[C@H](CC(C)C)NC(=O)[C@H](CCCCN)NC(=O)[C@H](CCCCN)NC(=O)[C@H](CCCNC(=N)N)NC(=O)[C@H](CC(C)C)NC(=O)[C@H](Cc3c[nH]c4ccccc34)NC(=O)[C@H](CCC(=O)O)NC(=O)[C@@H](NC(=O)[C@H](CCCNC(=N)N)NC(=O)[C@H](CCC(=O)O)NC(=O)[C@H](CCSC)NC(=O)[C@H](CO)NC(=O)[C@H](CC(N)=O)NC(=O)[C@H](CC(C)C)NC(=O)[C@H](Cc3c[nH]cn3)NC(=O)[C@H](CCCCN)NC(=O)CNC(=O)[C@H](CC(C)C)NC(=O)[C@H](CC(N)=O)NC(=O)[C@H](Cc3c[nH]cn3)NC(=O)[C@H](CCSC)NC(=O)[C@H](CC(C)C)NC(=O)[C@H](CCC(N)=O)NC(=O)[C@@H](NC(=O)[C@H](CCC(=O)O)NC(=O)[C@H](CO)NC(=O)[C@@H](NC(=O)[C@@H](N)CO)C(C)C)[C@@H](C)CC)C(C)C)C(C)C)C(=O)O)C2=O)C/C1=C/C=C1\\CCC[C@]2(C)[C@@H]([C@H](C)CCCC(C)(C)O)CC[C@@H]12 (stereo partly shown)", "test system": "rat, plasma", "conditions": "intravenous, 100 µg/kg, single dose", "quantity": "MRT", "value": "3.5 h"}
{"SMILES": "CN1CCC(c2ccc(-c3ccc([C@H]4[C@@H](F)[C@@H](F)C[C@@H](F)[C@H]4F)cc3)cn2)CC1", "assay": "liver microsome stability", "test system": "mouse liver microsomes", "conditions": "1 µM", "quantity": "hepatic clearance", "value": "78 mL/min/kg"}
{"SMILES": "O=C(Nc1cnccc1-c1ccc([18F])cc1)c1ccnc(NC(=O)C2CC2)c1", "test system": "FVB/NJ mice (both sexes), small intestine", "conditions": "intravenous, dose not given, 120 min", "quantity": "SUV", "value": 5.34}
{"SMILES": "C=C(NC(=O)c1csc(-c2nc3c(cc2O)-c2nc(cs2)C(=O)NC(C(C)O)C(=O)NC(=C(C)OC)c2nc(cs2)C(=O)NC2c4nc(cs4)C(=O)NC(COC(=O)c4c5c6c(cccc6n4O)COC(=O)C(OC4CC(C)(O)C(N(C)C)C(C)O4)C2OC5)c2nc-3cs2)n1)C(N)=O (stereo not shown)", "test system": "ICR mice, Streptococcus pneumoniae ATCC 49169 infected, immunocompromised, blood", "conditions": "intravenous, 4 mg/kg/day twice daily", "quantity": "Tmax", "value": "4.8 min"}
{"SMILES": "Cc1cccc(-c2ccc(COCCCCCN3C[C@H](O)[C@@H](O)[C@H](O)[C@H]3CO)cc2)c1", "target or system": "Ugcg", "assay": "enzyme activity, inhibitor, fluorescence", "quantity": "IC50", "value": "100 nM"}
{"SMILES": "C=Cc1ccccc1[B-]12OC(=O)C(c3ccccc3)=N[N+]1=C(CC)c1ccc(N(CC)CC)cc1O2 (stereo not shown)", "test system": "toluene", "quantity": "fluorescence emission maximum", "value": "510 nm"}
{"SMILES": "COC1CN([C@H]2CC[C@H]([C@@]3(C)Oc4c(Cl)cc(C(=O)NCc5c(SC)cc(C)[nH]c5=O)c(C)c4O3)CC2)C1", "assay": "RNA-seq, refers to: EPB41L4A", "test system": "human, whole blood", "conditions": "dose not given, 24 h", "scale": "baseline: pretreatment baseline", "quantity": "log2 fold change", "value": 1.18}
{"SMILES": "C=CC(=O)Nc1cccc(Cn2ncc3cnc(Nc4cnn(CCOC)c4)nc32)c1", "target or system": "human CDK4-cyclinD3", "assay": "KINOMEscan", "conditions": "100 nM", "scale": "baseline: control", "quantity": "binding", "value": "75%"}
{"SMILES": "Cc1nn(-c2cccc(N)c2)c(=O)c2cnc(Nc3ccc(N4CCNCC4)cc3)nc12", "target or system": "Epidermal growth factor receptor (EGFR, Homo sapiens, UniProt P00533)", "assay": "enzyme activity, inhibitor", "quantity": "IC50", "value": "> 10000 nM"}
{"SMILES": "Cc1ccc(-c2ccc([C@H]3[C@@H](F)[C@@H](F)C[C@@H](F)[C@H]3F)cc2)cn1", "assay": "hepatocyte stability", "test system": "cryopreserved human hepatocytes", "conditions": "1 µM", "quantity": "hepatic clearance", "value": "9.2 mL/min/kg"}
{"SMILES": "COc1cccc(OC)c1-c1cc(C(=O)NC2(C(=O)O)C3CC4CC(C3)CC2C4)nn1-c1ccc(C(=O)N(C)CCOCCOCCN(C)C(=O)[C@H](CCCCNC(=O)[C@H](CC(C)C)NC(=O)C2OC2C(=O)O)NC(=O)CN2CCN(CC(=O)[O-])CCN(CC(=O)[O-])CCN(CC(=O)[O-])CC2)cc1C(C)C.[177Lu+3] (mixture of isomers)", "test system": "mouse, HT-29 xenograft", "conditions": "72 h post injection, biodistribution", "scale": "baseline: tumour over blood uptake", "quantity": "tumour-to-blood ratio", "value": 12.1}
{"SMILES": "Nc1ncc(-c2cc(-c3cnn(CC(F)(F)F)c3)ncc2F)nc1C(=O)NC1CNCC(F)C1 (stereo not shown)", "target or system": "MEK3", "assay": "KINOMEscan", "conditions": "1 µM", "scale": "baseline: DMSO control", "quantity": "remaining binding", "value": "86%"}
{"SMILES": "C/C(N)=N/C(=N\\S(=O)(=O)c1ccc(C(F)(F)F)cc1)N1C[C@H](c2ccccc2)C(c2ccc(Cl)cc2)=N1", "test system": "minipig liver cytosol", "quantity": "t1/2", "value": "45.2 min"}
{"SMILES": "CC(C)(C)C(=O)Nc1ccc2[nH]c(CN3CCC(N(CCCN4CCOCC4)CC4OC(n5cnc6c(N)ncnc65)C(O)C4O)CC3)nc2c1 (stereo not shown)", "test system": "male Sprague-Dawley rat, plasma", "conditions": "intraperitoneal, 20 mg/kg, 2 h", "quantity": "concentration", "value": "363 ng/mL"}
{"SMILES": "O=C(Nc1ccc([C@H]2[C@@H](F)[C@@H](F)C[C@@H](F)[C@H]2F)cc1)C1(N2CCOCC2)CC1", "assay": "liver microsome stability", "test system": "rat liver microsomes", "conditions": "1 µM", "quantity": "hepatic clearance", "value": "48 mL/min/kg"}
{"SMILES": "CCCCCCCOc1ccc(CC[C@](N)(CO)COP(=O)(O)O)cc1C(F)(F)F", "test system": "healthy men, plasma", "conditions": "oral, 0.5 mg once daily, day 21, fed state", "quantity": "AUCτ", "value": "154 ng·h/mL"}
{"SMILES": "c1cc(C2CCCCC2)ccc1-c1cnc(N2CCOCC2)nc1", "assay": "liver microsome stability", "test system": "mouse liver microsomes", "conditions": "1 µM", "quantity": "hepatic clearance", "value": "56 mL/min/kg"}
{"SMILES": "O=c1cc(/C=C/c2ccc(N(c3ccccc3)c3ccccc3)cc2)oc(/C=C/c2ccc(N(c3ccccc3)c3ccccc3)cc2)c1", "test system": "acetonitrile/water 1:19 v/v", "conditions": "10 µM, 298 K, aggregate nanoparticle suspension", "quantity": "fluorescence quantum yield", "value": 0.048}
{"SMILES": "C=C[C@]1(C)C[C@@H](OC(=O)CSc2ccc(NC(=O)c3ccco3)cc2)[C@]2(C)[C@H](C)CC[C@]3(CCC(=O)[C@H]32)[C@@H](C)[C@@H]1O", "test system": "Mycoplasma gallisepticum-infected chickens, plasma", "conditions": "intramuscular, 40 mg/kg, 0.25 h", "quantity": "plasma concentration", "value": "3.82 µg/mL and 2.09 µg/mL and 3.65 µg/mL and 4.76 µg/mL and 6.28 µg/mL and 5.68 µg/mL and 3.74 µg/mL and 4.96 µg/mL"}
{"SMILES": "C[n+]1ccc(/C=N/NC(=O)c2cc(C(=O)N/N=C/c3cc[n+](C)cc3)ncn2)cc1", "target or system": "22CTA telomeric G4-DNA antiparallel", "assay": "FRET melting", "conditions": "1 µM, K10 buffer, DNA 0.2 µM, with: ds26 10 µM", "quantity": "ΔTm", "value": "0.9 ± 0.6 °C"}
{"SMILES": "N#Cc1cccc(-c2ccc(COCCCCCN3C[C@H](O)[C@@H](O)[C@H](O)[C@H]3CO)cc2)c1", "target or system": "Ugcg", "assay": "enzyme activity, inhibitor, fluorescence", "quantity": "IC50", "value": "50 nM"}
{"SMILES": "COC(=O)[C@@]1(C)C=C(C(=O)Nc2cccc(C(=O)Nc3ccc(Nc4nccc(-c5cccnc5)n4)c(C)c3)c2)C(=O)CC1", "test system": "Wistar rat male, blood plasma", "conditions": "1 µM, 2 h", "quantity": "compound remaining", "value": "2.6% and 8.1%"}
